Assay results pooled from the literature.
Lines come from different studies, so protocols differ. ± marks the error that the study gave.
APP Aβ1-40: Amyloid-beta precursor protein, Aβ1-40 (APP, Homo sapiens, UniProt P05067)

The chains behind the UniProt entries cited, without tags or fusion partners. Residues count along the entry.
UniProt P05067, whole entry, looked up: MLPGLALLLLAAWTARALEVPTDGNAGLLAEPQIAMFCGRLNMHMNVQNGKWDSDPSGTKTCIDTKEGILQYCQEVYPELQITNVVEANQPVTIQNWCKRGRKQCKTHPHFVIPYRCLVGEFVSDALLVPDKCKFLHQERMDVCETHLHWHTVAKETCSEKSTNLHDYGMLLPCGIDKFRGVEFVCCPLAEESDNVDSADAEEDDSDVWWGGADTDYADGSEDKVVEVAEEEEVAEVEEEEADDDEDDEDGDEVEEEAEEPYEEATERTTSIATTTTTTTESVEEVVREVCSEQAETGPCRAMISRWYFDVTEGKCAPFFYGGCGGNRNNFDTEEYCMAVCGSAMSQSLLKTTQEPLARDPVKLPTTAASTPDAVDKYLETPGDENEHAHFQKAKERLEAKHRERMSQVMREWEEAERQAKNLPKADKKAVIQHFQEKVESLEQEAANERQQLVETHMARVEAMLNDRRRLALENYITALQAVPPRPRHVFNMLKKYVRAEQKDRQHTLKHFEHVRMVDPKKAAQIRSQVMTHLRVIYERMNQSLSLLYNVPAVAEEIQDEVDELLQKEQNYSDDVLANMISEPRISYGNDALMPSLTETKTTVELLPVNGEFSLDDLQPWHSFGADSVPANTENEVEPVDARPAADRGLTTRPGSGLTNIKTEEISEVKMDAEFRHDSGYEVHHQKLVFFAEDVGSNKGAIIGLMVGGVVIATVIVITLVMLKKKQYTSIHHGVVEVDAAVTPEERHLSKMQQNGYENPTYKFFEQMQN
UniProt P11802, whole entry: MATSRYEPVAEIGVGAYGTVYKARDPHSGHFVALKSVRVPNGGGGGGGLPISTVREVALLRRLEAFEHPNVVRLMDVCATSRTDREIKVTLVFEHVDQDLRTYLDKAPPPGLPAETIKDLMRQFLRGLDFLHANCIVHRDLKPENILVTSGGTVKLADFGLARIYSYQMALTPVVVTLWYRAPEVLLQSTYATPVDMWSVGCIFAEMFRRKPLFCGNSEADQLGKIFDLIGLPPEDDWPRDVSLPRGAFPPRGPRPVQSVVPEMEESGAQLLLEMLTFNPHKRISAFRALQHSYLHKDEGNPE
UniProt Q9P2P5, 1237-1572 limits assumed: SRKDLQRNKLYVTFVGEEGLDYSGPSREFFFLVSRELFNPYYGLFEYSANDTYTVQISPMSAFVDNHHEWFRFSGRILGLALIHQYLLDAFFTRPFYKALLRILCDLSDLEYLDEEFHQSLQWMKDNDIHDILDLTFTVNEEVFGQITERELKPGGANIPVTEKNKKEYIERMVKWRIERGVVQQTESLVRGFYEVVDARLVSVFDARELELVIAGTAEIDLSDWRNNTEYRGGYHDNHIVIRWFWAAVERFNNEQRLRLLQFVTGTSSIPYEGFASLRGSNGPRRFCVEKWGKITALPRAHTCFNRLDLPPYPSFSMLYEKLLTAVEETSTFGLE
UniProt P43235, 115-329 limits assumed: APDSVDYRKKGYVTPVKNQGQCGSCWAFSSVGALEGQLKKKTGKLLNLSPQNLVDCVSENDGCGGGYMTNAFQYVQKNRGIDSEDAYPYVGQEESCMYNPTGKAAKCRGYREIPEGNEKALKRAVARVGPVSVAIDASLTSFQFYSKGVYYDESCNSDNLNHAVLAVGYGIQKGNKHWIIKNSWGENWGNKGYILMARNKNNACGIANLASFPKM
UniProt P46934, whole entry, looked up: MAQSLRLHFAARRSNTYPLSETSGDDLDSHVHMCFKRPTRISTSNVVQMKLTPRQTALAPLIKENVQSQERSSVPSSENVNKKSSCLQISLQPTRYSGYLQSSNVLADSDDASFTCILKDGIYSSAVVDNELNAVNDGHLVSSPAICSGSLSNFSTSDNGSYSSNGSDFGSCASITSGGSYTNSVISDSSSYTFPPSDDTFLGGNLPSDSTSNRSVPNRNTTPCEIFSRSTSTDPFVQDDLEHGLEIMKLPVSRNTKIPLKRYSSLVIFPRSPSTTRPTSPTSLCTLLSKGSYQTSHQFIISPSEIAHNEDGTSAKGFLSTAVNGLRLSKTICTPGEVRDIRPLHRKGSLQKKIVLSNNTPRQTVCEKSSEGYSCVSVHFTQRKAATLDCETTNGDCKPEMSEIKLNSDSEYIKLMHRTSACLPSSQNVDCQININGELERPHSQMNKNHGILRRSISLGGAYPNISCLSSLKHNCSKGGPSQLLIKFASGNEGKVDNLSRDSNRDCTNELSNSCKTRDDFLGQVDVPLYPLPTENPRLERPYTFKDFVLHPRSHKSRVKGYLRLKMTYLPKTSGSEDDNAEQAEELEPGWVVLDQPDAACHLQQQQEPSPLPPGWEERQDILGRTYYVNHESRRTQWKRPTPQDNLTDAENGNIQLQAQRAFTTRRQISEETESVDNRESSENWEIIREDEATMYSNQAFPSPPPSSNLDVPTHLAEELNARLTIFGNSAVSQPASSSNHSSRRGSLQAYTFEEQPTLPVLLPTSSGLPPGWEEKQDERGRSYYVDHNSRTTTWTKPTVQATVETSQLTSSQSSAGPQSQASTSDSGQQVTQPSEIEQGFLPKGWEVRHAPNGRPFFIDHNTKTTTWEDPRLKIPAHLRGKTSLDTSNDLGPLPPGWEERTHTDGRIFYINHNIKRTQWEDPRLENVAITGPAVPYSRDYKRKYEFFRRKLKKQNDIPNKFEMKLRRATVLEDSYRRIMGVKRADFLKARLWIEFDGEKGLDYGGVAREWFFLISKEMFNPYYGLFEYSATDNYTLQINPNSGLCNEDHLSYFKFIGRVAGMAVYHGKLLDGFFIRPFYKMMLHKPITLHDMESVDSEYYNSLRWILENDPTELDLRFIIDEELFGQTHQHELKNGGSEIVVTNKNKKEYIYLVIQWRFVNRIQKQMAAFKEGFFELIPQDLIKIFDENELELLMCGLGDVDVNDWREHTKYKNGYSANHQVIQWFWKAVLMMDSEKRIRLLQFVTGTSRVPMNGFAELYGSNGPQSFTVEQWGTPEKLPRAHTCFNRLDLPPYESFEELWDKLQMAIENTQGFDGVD
UniProt Q6PE15, 44-297 limits assumed: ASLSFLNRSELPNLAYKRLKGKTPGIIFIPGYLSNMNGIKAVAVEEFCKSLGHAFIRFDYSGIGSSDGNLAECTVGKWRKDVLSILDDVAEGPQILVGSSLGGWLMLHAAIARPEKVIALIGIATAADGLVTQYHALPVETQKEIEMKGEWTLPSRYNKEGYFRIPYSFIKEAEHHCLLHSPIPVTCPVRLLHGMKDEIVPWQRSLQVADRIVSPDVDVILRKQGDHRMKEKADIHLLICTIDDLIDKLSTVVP
UniProt P07384, whole entry: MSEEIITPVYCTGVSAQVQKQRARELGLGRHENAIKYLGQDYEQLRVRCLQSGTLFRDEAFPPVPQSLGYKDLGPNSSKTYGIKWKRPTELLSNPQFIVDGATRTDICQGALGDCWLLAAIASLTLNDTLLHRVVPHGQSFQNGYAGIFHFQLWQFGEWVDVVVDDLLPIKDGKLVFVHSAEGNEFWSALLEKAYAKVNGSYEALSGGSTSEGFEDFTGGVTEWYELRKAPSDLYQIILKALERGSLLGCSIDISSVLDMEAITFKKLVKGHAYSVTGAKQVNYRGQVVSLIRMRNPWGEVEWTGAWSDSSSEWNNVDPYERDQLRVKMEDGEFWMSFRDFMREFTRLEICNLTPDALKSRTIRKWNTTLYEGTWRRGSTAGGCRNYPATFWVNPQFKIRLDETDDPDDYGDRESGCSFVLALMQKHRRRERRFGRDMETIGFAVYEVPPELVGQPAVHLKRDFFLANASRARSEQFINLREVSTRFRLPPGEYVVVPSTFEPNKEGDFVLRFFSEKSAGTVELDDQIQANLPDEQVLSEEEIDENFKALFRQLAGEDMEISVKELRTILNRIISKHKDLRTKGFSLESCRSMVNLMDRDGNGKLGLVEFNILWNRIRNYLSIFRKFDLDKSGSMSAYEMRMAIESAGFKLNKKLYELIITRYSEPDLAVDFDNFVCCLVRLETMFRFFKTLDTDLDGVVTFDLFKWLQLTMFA
UniProt P24385, whole entry partner: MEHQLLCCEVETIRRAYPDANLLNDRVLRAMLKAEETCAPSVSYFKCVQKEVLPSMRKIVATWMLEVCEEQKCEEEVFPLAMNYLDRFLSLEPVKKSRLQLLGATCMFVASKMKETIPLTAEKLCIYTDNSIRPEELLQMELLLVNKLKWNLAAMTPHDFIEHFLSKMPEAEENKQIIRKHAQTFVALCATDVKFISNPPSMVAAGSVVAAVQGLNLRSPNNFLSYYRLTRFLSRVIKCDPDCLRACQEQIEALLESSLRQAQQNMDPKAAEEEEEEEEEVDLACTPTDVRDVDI
UniProt P04632, whole entry partner: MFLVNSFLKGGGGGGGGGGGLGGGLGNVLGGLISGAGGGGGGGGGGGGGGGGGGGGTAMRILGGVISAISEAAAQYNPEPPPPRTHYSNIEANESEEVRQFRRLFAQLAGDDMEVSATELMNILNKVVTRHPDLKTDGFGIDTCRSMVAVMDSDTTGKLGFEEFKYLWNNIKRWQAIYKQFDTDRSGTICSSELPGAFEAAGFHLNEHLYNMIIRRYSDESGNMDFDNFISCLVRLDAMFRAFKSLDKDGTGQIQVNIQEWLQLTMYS

Compound | tested on | assay | test system | conditions | how to read | quantity | result
CN(C)C(=O)Cn1cc(-c2ccc(-c3cncc4ccncc34)cc2)cn1 | Cyclin-dependent kinase 4 (CDK4, Homo sapiens, UniProt P11802) | enzyme activity, SelectScreen | – | concentration not given | – | inhibition | no inhibition
COC(=O)[C@@H]1C(c2nc3ccccc3o2)=Cc2cc3c(cc2[C@H]1c1cc(OC)c(OC)c(OC)c1)OCO3 | Leishmania | – | mouse splenocytes | – | relative to: CC50 over amastigote EC50 | selectivity index | > 22.2
COC(=O)[C@@]1(C)C=C(C(=O)Nc2cccc(C(=O)NC34CC(Nc5nccc(-c6cccnc6)n5)(C3)C4)c2)C(=O)CC1 | Mitogen-activated protein kinase 9 (MAPK9, Homo sapiens, UniProt P45984) | enzyme activity, inhibitor | – | 0.02032 µM | – | remaining activity | 0.654 fraction of control
COC(=O)[C@@H]1C(C=Nc2cc(C)ccc2O)=Cc2cc3c(cc2[C@H]1c1cc(OC)c(OC)c(OC)c1)OCO3 | Leishmania | – | mouse splenocytes | – | relative to: CC50 over amastigote EC50 | selectivity index | 0.5
CCOC(=O)/C=C/CNCCCCN1c2ccccc2CCc2ccc(Cl)cc21 | E3 ubiquitin-protein ligase HECW2 (HECW2, Homo sapiens, UniProt Q9P2P5) | ubiquitination, Ub-TR-FRET | – | concentration not given, up to high concentrations | – | inhibition | no inhibition
O=C(NC1CC1)C(=O)[C@H](Cc1ccccc1)NC(=O)[C@H]1CCC(=O)N1Cc1ccccc1 | Cathepsin K (CTSK, Homo sapiens, UniProt P43235) | enzyme activity, inhibitor | – | 1 µM | – | inhibition | 4.1%
COC(=O)/C=C/CNC(=O)c1c(C)n(C2CCCC2)c2ccc(OC)cc12 | E3 ubiquitin-protein ligase NEDD4 (Homo sapiens, UniProt P46934) | ubiquitination, inhibitor, Ub-TR-FRET | – | 11 µM, HECT domain | – | inhibition | 37 ± 16%
COc1ccc2[nH]cc(/C=C/c3ccc(OS(C)(=O)=O)cc3)c2c1 | APP Aβ1-40 | Aβ40 aggregation, thioflavin T fluorescence | – | 25 µM | – | inhibition | 36%
Cc1ncsc1-c1ccc([C@H](C)NC(=O)[C@@H]2C[C@@H](O)CN2C(=O)[C@@H](NC(=O)CCCCCCC(=O)N2CCN(C[C@]3(C)CCC(c4ccc(Cl)cc4)=C(CN4CCN(c5ccc(C(=O)NS(=O)(=O)c6ccc(N[C@H](CCN7CCOCC7)CSc7ccccc7)c(S(=O)(=O)C(F)(F)F)c6)cc5)CC4)C3)CC2)C(C)(C)C)cc1 | – | refers to: Cdkn2a | naturally aged mice, liver | intraperitoneal, 5 mg/kg every 3 days | – | mRNA level | decreased
CC[C@@]1(c2cccc(C)c2)C(=O)N(C(=O)OC)N1C(=O)OC | Palmitoyl-protein thioesterase ABHD10, mitochondrial (Mus musculus, UniProt Q6PE15) | inhibitor, competitive ABPP gel | COS-7 proteome overexpressing ABHD10 | concentration not given | – | inhibition | inhibited
COC(=O)/C(=C/c1c[nH]c2ccc(F)cc12)c1ccc(F)cc1 | APP Aβ1-40 | Aβ40 aggregation, thioflavin T fluorescence | – | 25 µM | – | inhibition | 0%
CCOC(=O)C1=C(C)NC2=C(C(=O)CC(C)(C)C2)C1c1ccc(OCC(=O)NN=Cc2cccc(C=O)c2)cc1OCC(=O)NN=Cc1cccc(C=O)c1 (stereo not drawn) | Bacillus subtilis | – | IM 622 | concentration not given, 24 h | – | inhibition zone diameter | 6.6 ± 0.3 mm
O=C(Nc1cccc(F)c1)c1cc(S(=O)(=O)N2CCOCC2)c(Cl)cc1Cl | Autotaxin (ENPP2, Homo sapiens, UniProt Q13822) | enzyme activity | – | 10 µM, 4 h, together with: 1 µM FS-3 | – | inhibition | 89 ± 0.3%
COc1ccc2[nH]cc(/C=C/c3ccc(NC(C)=O)cc3)c2c1 | APP Aβ1-40 | Aβ40 aggregation, thioflavin T fluorescence | – | 25 µM | – | inhibition | 55%
CCNC(=O)C(=O)[C@H](Cc1ccccc1)NC(=O)[C@H]1CCC(=O)N1Cc1ccccc1 | Calpain-1 catalytic subunit (CAPN1, Homo sapiens, UniProt P07384) | enzyme activity, inhibitor | – | 1 µM | – | inhibition | 84.2%

For quick reference, copied from above:
Compound | tested on | assay | test system | conditions | how to read | quantity | result
COC(=O)[C@@H]1C(C=Nc2cc(C)ccc2O)=Cc2cc3c(cc2[C@H]1c1cc(OC)c(OC)c(OC)c1)OCO3 | Leishmania | – | mouse splenocytes | – | relative to: CC50 over amastigote EC50 | selectivity index | 0.5
Cc1ncsc1-c1ccc([C@H](C)NC(=O)[C@@H]2C[C@@H](O)CN2C(=O)[C@@H](NC(=O)CCCCCCC(=O)N2CCN(C[C@]3(C)CCC(c4ccc(Cl)cc4)=C(CN4CCN(c5ccc(C(=O)NS(=O)(=O)c6ccc(N[C@H](CCN7CCOCC7)CSc7ccccc7)c(S(=O)(=O)C(F)(F)F)c6)cc5)CC4)C3)CC2)C(C)(C)C)cc1 | – | refers to: Cdkn2a | naturally aged mice, liver | intraperitoneal, 5 mg/kg every 3 days | – | mRNA level | decreased
